Published values pooled from the literature.
± gives the spread as reported.

For `CC(C(=O)O)n1nc(Cn2cc3cc(OCC[18F])c(Cl)cc3n2)c2ccccc2c1=O` (racemic), the tracer uptake was 0.25 %ID/g (rat, heart; 30 min).
With `O=C(CC(F)(F)F)Nc1ccc([C@H]2[C@@H](F)[C@@H](F)C[C@@H](F)[C@H]2F)cc1` the hepatic clearance was 6 mL/min/kg (liver microsome stability; human liver microsomes; 1 µM, without NADPH).
`COc1cccc(OC)c1-c1cc(C(=O)NC2(C(=O)O)C3CC4CC(C3)CC2C4)nn1-c1ccc(C(=O)N(C)CCOCCOCCN(C)C(=O)[C@H](CCCCNC(=O)[C@H](CC(C)C)NC(=O)C2OC2C(=O)O)NC(=O)CN2CCN(CC(=O)[O-])CCN(CC(=O)[O-])CCN(CC(=O)[O-])CC2)cc1C(C)C.[177Lu+3]` (mixture of isomers) has a tumour-to-blood ratio of 1.4 (mouse, HT-29 xenograft; 4 h post injection, biodistribution; relative to: tumour over blood uptake).
For `C=Cc1ccc([B-]23OC(=O)C(c4ccccc4)=N[N+]2=Cc2ccc(N(CC)CC)cc2O3)cc1` (centres unmarked), “fluorescence emission maximum” read 508 nm (toluene).
For `O=C(Nc1cnccc1-c1ccc([18F])nc1)c1ccnc(NC(=O)C2CC2)c1`, the SUV was 8.71 (FVB/NJ mice, both sexes, liver; intravenous, 25 min, median, P-gp inhibitor pretreatment, added: tariquidar 15 mg/kg iv).
For `C=C1C[C@]2(C(=O)OC)C=C(C(=O)Nc3cccc(C(=O)Nc4ccc(Nc5nccc(-c6cccnc6)n5)c(C)c4)c3)C(=O)[C@H]1C2`, the compound remaining was 3.21% (Wistar rat, male, plasma; 10 µM, 15 min).
For `c1cc(C2CCCCC2)ccc1-c1ccc(N2CCCC2)nc1`, the hepatic clearance was 12 mL/min/kg (hepatocyte stability; cryopreserved human hepatocytes; 1 µM).
With `C=CC(=O)Nc1cc(Nc2nccc(-c3c[nH]c4ccccc34)n2)c(OC)cc1N(C)CCN(C)C` the percentage recovery was 43.4% (storage stability; human dried blood spot samples; 30 d, -80 °C, LQC level; relative to: nominal concentration).
For `C/C(N)=N/C(=N\S(=O)(=O)c1ccc(C(F)(F)F)cc1)N1C[C@H](c2ccccc2)C(c2ccc(Cl)cc2)=N1`, the AUC(0-inf) was 25200 ng·h/mL (beagle dog, plasma; oral, 18 mg/kg).
Under “elimination rate constant”, `O=C(N1CCCCC1)C12CC(c3ccccc3)(C1)C2(Br)Br` is recorded as 0.000967 s⁻¹ (pooled human liver microsomes; 2 µM, pH 7.4).
With `CS(=O)(=O)c1ccc(-c2ccc(C3CCCCC3)cc2)cn1` the hepatic clearance was 38 mL/min/kg (hepatocyte stability; cryopreserved rat hepatocytes; 1 µM).
Under “subjects with TEAEs”, `CC(C)(O)c1ncc([S@](N)(=O)=NC(=O)Nc2c3c(cc4c2CCC4)CCC3)s1` is recorded as 17% (refers to: skin, subcutaneous tissue disorders; healthy human; oral, 100 mg, CT formulation, fasted).
For `Fc1ccc(OCC2CN(Cc3cn4ccccc4n3)CCC2(F)F)cc1` (centres unmarked), the fu was 0.064 (equilibrium dialysis; mouse plasma).
`O=C(NCc1cccc(Cl)c1)c1ccc(C2CCCCC2)cc1` gave a hepatic clearance of 48 mL/min/kg (liver microsome stability; rat liver microsomes; 1 µM).
The AUC(0-inf) of `C=C(NC(=O)c1csc(-c2nc3c(cc2O)-c2nc(cs2)C(=O)NC(C(C)O)C(=O)NC(=C(C)OC)c2nc(cs2)C(=O)NC2c4nc(cs4)C(=O)NC(COC(=O)c4c5c6c(cccc6n4O)COC(=O)C(OC4CC(C)(O)C(N(C)C)C(C)O4)C2OC5)c2nc-3cs2)n1)C(N)=O` (centres unmarked) is reported as 342 ng·h/mL (ICR mice, Streptococcus pneumoniae ATCC 49169 infected, immunocompromised, blood; intravenous, 4 mg/kg/day once daily).
With `Nc1ncc(-c2ccc(C3CCCCC3)cc2)cn1` the hepatic clearance was 19 mL/min/kg (hepatocyte stability; cryopreserved human hepatocytes; 1 µM).
The AUC(0-24 h) of `OC1(C(F)(F)F)CCN(c2nc(Nc3ccnc(C(F)(F)F)c3)nc(-c3cccc(C(F)(F)F)n3)n2)C1` (centres unmarked) is reported as 6100 ± 654 ng·h/mL (Sprague-Dawley rat, both sexes, plasma; oral gavage, 5 mg/kg, day 1).

Repeated from above:
For `CC(C(=O)O)n1nc(Cn2cc3cc(OCC[18F])c(Cl)cc3n2)c2ccccc2c1=O` (racemic), the tracer uptake was 0.25 %ID/g (rat, heart; 30 min).
For `O=C(Nc1cnccc1-c1ccc([18F])nc1)c1ccnc(NC(=O)C2CC2)c1`, the SUV was 8.71 (FVB/NJ mice, both sexes, liver; intravenous, 25 min, median, P-gp inhibitor pretreatment, added: tariquidar 15 mg/kg iv).
`COc1cccc(OC)c1-c1cc(C(=O)NC2(C(=O)O)C3CC4CC(C3)CC2C4)nn1-c1ccc(C(=O)N(C)CCOCCOCCN(C)C(=O)[C@H](CCCCNC(=O)[C@H](CC(C)C)NC(=O)C2OC2C(=O)O)NC(=O)CN2CCN(CC(=O)[O-])CCN(CC(=O)[O-])CCN(CC(=O)[O-])CC2)cc1C(C)C.[177Lu+3]` (mixture of isomers) has a tumour-to-blood ratio of 1.4 (mouse, HT-29 xenograft; 4 h post injection, biodistribution; relative to: tumour over blood uptake).
